Measurements from different studies.
Each line is one published result; not all experiments were run side by side. ± gives the spread as reported. Values after ≈ are worked out from the molar mass of the structure shown.
PGR: Progesterone receptor (PGR, Homo sapiens, UniProt P06401)
Chain of UniProt P06401 (whole entry, looked up): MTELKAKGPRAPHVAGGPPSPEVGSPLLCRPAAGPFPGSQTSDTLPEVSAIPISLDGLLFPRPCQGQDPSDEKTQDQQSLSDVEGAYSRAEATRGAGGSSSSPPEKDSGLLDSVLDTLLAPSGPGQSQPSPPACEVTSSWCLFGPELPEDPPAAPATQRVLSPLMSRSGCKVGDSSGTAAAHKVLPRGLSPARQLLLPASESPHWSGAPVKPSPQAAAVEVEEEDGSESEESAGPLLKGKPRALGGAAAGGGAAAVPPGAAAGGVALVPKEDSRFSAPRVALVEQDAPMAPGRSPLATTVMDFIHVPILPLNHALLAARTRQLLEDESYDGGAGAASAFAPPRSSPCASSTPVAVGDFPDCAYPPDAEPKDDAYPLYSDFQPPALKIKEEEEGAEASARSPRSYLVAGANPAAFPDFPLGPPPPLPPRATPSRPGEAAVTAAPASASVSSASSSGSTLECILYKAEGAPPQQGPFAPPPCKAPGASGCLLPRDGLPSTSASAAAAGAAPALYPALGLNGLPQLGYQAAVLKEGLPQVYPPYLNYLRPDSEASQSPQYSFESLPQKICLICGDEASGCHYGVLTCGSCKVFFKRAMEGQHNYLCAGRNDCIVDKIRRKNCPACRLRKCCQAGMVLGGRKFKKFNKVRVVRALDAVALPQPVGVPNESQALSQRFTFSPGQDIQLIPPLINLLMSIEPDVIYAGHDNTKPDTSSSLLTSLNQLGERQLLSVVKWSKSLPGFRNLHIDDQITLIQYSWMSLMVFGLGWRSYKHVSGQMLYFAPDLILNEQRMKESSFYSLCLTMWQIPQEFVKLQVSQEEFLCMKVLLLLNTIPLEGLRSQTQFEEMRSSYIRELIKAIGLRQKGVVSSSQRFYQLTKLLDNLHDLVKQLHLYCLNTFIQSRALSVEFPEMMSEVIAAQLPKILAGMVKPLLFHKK
PTGS1: Prostaglandin G/H synthase 1 (PTGS1, Ovis aries, UniProt P05979)
Chain of UniProt P05979 (whole entry, looked up): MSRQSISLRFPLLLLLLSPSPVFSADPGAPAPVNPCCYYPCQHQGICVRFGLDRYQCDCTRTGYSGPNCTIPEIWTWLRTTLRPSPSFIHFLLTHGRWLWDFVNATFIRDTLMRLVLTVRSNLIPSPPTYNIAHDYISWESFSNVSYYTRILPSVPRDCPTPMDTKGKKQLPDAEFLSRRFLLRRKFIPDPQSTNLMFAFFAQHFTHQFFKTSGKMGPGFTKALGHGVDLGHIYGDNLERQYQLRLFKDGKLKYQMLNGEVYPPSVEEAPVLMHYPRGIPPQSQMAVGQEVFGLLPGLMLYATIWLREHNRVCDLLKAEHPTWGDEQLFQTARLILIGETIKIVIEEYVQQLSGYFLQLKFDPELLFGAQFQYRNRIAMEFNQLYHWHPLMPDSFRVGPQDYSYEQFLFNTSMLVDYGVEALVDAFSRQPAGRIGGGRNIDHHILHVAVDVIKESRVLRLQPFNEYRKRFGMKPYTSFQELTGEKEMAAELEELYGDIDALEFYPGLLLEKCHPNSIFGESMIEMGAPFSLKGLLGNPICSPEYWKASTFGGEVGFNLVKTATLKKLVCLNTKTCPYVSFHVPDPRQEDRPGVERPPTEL
Chain of UniProt P52564 (whole entry, looked up): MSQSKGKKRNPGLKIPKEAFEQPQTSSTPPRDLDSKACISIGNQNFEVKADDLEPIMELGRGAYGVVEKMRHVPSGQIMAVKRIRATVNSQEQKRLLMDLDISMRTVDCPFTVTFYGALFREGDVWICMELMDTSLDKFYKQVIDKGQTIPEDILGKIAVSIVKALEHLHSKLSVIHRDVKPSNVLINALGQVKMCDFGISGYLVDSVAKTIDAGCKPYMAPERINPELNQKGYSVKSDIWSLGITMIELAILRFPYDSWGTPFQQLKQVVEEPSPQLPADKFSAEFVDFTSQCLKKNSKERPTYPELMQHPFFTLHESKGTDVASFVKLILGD
Chain of UniProt O60840 (whole entry, looked up): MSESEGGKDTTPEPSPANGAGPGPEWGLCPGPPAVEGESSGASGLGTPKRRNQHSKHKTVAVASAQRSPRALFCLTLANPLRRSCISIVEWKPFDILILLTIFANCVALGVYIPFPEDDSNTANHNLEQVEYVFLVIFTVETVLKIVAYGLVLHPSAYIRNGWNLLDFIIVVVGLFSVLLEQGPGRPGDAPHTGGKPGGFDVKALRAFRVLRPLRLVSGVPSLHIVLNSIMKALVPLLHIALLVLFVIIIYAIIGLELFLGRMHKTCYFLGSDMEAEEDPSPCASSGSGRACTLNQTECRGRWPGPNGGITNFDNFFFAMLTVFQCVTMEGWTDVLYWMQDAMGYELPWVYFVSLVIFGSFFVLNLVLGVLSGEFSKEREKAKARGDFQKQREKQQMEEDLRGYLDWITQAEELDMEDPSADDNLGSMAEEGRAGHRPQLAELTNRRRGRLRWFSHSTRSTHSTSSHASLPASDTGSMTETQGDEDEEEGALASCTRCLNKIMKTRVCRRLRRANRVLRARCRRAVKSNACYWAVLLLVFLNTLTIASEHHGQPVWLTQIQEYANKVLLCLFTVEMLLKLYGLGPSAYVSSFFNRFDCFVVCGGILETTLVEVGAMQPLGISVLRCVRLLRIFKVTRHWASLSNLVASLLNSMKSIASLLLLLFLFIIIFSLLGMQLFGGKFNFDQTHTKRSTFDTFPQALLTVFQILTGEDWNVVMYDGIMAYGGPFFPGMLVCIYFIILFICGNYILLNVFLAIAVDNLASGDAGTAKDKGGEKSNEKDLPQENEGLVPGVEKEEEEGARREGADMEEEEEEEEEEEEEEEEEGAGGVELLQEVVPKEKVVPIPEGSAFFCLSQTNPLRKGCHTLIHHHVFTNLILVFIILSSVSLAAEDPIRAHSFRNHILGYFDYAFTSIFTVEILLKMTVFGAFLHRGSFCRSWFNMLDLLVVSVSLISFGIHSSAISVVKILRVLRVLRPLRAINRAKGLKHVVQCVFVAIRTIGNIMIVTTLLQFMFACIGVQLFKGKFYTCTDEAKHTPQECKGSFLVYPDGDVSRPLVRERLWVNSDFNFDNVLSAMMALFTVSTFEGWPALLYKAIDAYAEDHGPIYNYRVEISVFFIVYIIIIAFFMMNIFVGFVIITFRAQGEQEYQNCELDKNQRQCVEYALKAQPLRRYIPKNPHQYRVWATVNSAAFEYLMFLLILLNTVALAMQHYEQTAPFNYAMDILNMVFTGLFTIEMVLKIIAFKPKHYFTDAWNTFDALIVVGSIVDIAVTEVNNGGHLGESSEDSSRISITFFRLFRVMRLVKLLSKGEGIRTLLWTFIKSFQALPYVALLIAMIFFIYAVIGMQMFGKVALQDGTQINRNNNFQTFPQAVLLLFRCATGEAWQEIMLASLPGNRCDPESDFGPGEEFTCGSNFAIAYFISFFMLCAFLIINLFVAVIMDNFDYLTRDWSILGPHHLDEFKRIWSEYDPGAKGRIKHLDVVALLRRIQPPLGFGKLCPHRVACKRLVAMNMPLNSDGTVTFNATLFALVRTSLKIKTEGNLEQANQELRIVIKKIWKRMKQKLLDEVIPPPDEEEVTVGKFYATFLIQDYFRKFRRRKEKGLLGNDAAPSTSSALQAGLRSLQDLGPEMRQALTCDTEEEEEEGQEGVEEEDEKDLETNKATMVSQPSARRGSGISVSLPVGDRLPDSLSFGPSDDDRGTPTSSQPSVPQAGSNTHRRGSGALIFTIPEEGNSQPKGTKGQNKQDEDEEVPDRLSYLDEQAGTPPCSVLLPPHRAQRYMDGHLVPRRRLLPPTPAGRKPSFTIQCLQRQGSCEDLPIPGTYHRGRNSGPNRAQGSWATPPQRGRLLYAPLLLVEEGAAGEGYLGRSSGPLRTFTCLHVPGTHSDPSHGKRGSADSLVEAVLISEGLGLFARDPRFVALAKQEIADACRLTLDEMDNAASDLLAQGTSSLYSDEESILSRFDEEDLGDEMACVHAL
Chain of UniProt Q04609 (whole entry, looked up): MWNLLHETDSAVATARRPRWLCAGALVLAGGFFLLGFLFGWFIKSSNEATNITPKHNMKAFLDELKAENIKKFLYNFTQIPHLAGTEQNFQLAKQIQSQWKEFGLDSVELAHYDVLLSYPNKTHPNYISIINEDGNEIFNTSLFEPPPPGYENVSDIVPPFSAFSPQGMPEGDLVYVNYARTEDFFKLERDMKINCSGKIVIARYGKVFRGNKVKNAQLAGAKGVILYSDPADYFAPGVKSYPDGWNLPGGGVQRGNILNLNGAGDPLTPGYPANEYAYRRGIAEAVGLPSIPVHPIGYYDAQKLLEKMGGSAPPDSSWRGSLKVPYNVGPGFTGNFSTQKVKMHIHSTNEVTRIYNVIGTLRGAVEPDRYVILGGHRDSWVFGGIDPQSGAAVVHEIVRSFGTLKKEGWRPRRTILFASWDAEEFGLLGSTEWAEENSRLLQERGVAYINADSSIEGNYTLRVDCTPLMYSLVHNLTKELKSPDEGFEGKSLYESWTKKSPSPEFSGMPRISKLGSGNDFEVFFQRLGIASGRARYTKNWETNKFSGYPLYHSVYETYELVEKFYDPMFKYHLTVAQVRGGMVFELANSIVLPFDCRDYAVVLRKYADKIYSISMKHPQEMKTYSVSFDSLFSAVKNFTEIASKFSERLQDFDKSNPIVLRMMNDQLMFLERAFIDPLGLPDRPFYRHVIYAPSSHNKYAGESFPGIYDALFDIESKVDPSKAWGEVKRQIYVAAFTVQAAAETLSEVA
Chain of UniProt Q3UFF7 (whole entry, looked up): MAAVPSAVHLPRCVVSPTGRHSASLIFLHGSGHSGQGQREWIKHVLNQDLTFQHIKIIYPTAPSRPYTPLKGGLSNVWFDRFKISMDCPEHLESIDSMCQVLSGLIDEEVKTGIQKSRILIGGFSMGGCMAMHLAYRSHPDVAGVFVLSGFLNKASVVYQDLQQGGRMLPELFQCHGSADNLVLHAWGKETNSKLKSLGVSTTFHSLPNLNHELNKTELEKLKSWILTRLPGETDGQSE

CCOC(=O)CC[C@@H](NC(=O)[C@@H](NC(=O)c1cn(-c2ccccc2)nc1-c1cccc(C)c1)C(C)C)C(=O)OCC — activation (NOD2 (Homo sapiens, UniProt Q9HC29); NF-kB reporter gene, agonist; HEK-Blue cells expressing NOD2; 10 µM, 16 h): inactive
CC(=O)C12NC(C)(C)CC1(C)C(=O)C1=C2c2c(c3c4n2C(C)(C)CC2=C4C4(CC(C)(C)NC(C)(C4)C2=O)CC3(C)C)C(=O)C(C)(C)N1 (single isomer, unassigned; (+)) — agonist activity (OPRD1 (Homo sapiens, UniProt P41143); agonist, cAMP; CHO; concentration not given): inactive
CCCCCCCCSc1nc2c([nH]1)c(=O)n(C)c(=O)n2C — remaining activity (PGR; reporter gene, antagonist, MMTV-luciferase; T47D/A1-2; 10 µM, 24 h, with: 5 nM progesterone; relative to: maximal activity): 33%
Cc1nnc(NC(=O)c2cc([C@@H]3C[C@H]3NC3CCC3)ccc2Br)s1 (relative stereo) — styrene formation rate constant (KDM1A (Homo sapiens, UniProt O60341); LC-MS; first-order adduct fragmentation): ~0.04 h⁻¹
COc1cc(N2CCN(C(=O)CN)CC2)ccc1Nc1ncc(Cl)c(Nc2ccccc2P(C)(C)=O)n1 — Dmax (ALK tyrosine kinase receptor, EML4-ALK fusion (ALK, Homo sapiens, UniProt Q9UM73); degrader; NCI-H3122; 0.5 µM): 76%
Nc1nc(SCc2ccc(Cl)cc2)nn1S(=O)(=O)c1ccc2c(c1)CCO2 — fold activation (Lysophospholipase-like protein 1 (Mus musculus, UniProt Q3UFF7); activator, gel-based ABPP FP-rhodamine; concentration not given; relative to: DMSO): ~2.5 fold
O=C(/C=C/c1ccc(O)cc1)OCCCC[P+](c1ccccc1)(c1ccccc1)c1ccccc1 — catalase activity (Catalase (Rattus norvegicus, UniProt P04762); rat mitochondria; 10 µM, 15 and 30 min): increased
FC(F)(F)Oc1ccc(/N=c2\oc3ccccc3cc2-c2ccccc2)cc1 — binding free energy (PTGS1; enzyme activity, inhibitor; from IC50, T 300 K): -11.2 kcal/mol
Cc1nc(N(C)C)nc(C)c1O — relative inhibitory potency (PTGS1; prostaglandin biosynthesis, inhibitor; concentration not given; relative to: paracetamol): 25 fold
COC1CN([C@H]2CC[C@H]([C@@]3(C)Oc4c(Cl)cc(C(=O)NCc5c(SC)cc(C)[nH]c5=O)c(C)c4O3)CC2)C1 — residence time (EZH2 (Homo sapiens, UniProt Q15910); TR-FRET dissociation): ~96 days
CC12CC3CC(C)(C1)CC(NC(=O)Nc1ccc(C(=O)N4CCC[C@H](NS(C)(=O)=O)C4)cc1F)(C3)C2 — lipophilic ligand efficiency (EPHX2 (Homo sapiens, UniProt P34913)): 7.35
COc1ccc(/N=N/c2ccc(OC[C@@H](O)CNC(C)C)cc2)cc1 — IC50 ratio (ADRB1 (Homo sapiens, UniProt P08588); competitive binding confocal microscopy; SNAP-ADRB1 cells; with: alprenolol-green; relative to: dark over illuminated): 178 fold
O=C([O-])CN(CCN(CC(=O)[O-])Cc1cc(CCC(=O)NCCCCCC(=O)NCCCC[C@H](NC(=O)N[C@@H](CCC(=O)O)C(=O)O)C(=O)O)ccc1O)Cc1cc(CCC(=O)O)ccc1[O-].[68Ga+3] — SUVmax (FOLH1 (Homo sapiens, UniProt Q04609); PET/CT; prostate cancer patients, lymph node metastases; 60 min post-injection): 22.5 ± 19.3
COc1ccccc1CNC(=O)CCn1c(=O)[nH]c2ccsc2c1=O — koff (Heat shock protein 90, N-terminal domain (Plasmodium falciparum, UniProt Q8IC05); binding, SPR): 1.26e-06 s⁻¹
CC(C)CCC[C@@H](C)[C@H]1CC[C@H]2[C@@H]3CC=C4C[C@@H](OS(=O)(=O)O)CC[C@]4(C)[C@H]3CC[C@]12C — maximal inhibition (Prothrombin (F2, Homo sapiens, UniProt P00734); enzyme activity, inhibitor; with: unfractionated heparin 50 µM): 69.8 ± 3.1%
CCCCCSc1nc2c([nH]1)c(=S)n(C)c(=S)n2C — remaining activity (PGR; reporter gene, antagonist, MMTV-luciferase; T47D/A1-2; 10 µM, 24 h, with: 5 nM progesterone; relative to: maximal activity): 72%
CC(C)(C)CCN1C[C@@H]2[C@@H](CNC(=O)c3cc(Cl)cc(Cl)c3)[C@@H]2C1.Cl — Gmax (Voltage-dependent L-type calcium channel subunit alpha-1F (Homo sapiens, UniProt O60840); calcium current, whole-cell patch clamp; HEK-293T cells; 5 µM, holding potential -90 mV, with: β2 and α2δ subunits): 0.14 ± 0.053 nS/pF
Cc1cc(=O)oc2cc(NC(=O)CCCCCCCC(=O)NO)ccc12 — ΔG (HDAC8 (Homo sapiens, UniProt Q9BY41); ITC; Tris-HCl buffer; pH 7.5, 25 °C): -8.7 ± 0.1 kcal/mol
NC[C@@H](C(=O)Nc1ccc(-c2cn[nH]c2)cc1)c1ccccc1 — IC90 (ROCK1 (Homo sapiens, UniProt Q13464); enzyme activity, inhibitor, ATP luminescence): 0.0109 µg/mL (≈ 0.0356 µM)
CC(C)C[C@H](NC(=O)[C@@H]1CCCN1C(=O)[C@H](CC(=O)O)NC(=O)[C@H](CO)NC(=O)[C@H](C)NC(=O)c1cc(-c2ccccc2)nc2ccccc12)C(=O)NCC(=O)N[C@H](C(=O)N[C@H](C(=O)N[C@@H](CCCNC(=N)N)C(=O)NCC(=O)N[C@@H](CCCNC(=N)N)C(=O)N[C@@H](C)C(=O)N[C@@H](CCCNC(=N)N)C(=O)N[C@H](CCCNC(=O)CCOCCOCCOCCOCCNC(=O)CCCC[C@@H]1SC[C@@H]2NC(=O)N[C@@H]21)C(N)=O)C(C)C)C(C)C — binding (MDM2; biolayer interferometry; concentration not given, 7.8 to 1000 nM analyte): no binding
CC(=O)OC1(C(C)=O)CCC2C3C=C(C)C4=CC(=O)C(O)CC4(C)C3CCC21C (stereo not drawn) — mRNA level (PGR; refers to: E2F1; T47D; 100 nM, 8 h; relative to: ethanol vehicle): 3.6 ± 0.2 fold change
CCCCCCCCCCCCNP(=O)(Oc1ccccc1)O[C@@H]1O[C@H](CO)[C@@H](O)[C@H](O)[C@H]1F (mixture of isomers) — kinact/Ki (GBA1 (Homo sapiens, UniProt P04062); enzyme activity, irreversible inhibitor; pH 5.5, 37 °C, with: 2,4-dinitrophenyl beta-D-glucopyranoside): 3170 M⁻¹ s⁻¹
CCCCCCCCCCCCSc1nc2c([nH]1)c(=S)n(C)c(=O)n2C — remaining activity (PGR; reporter gene, antagonist, MMTV-luciferase; T47D/A1-2; 10 µM, 24 h, with: 5 nM progesterone; relative to: maximal activity): 76%
CCc1nc2cc3ccccc3cc2cc1C(=O)N1CCC[C@H]1C(=O)N[C@@H](C/C=C\C[C@H](NC(=O)[C@@H]1CCCN1C(=O)c1cc2cc3ccccc3cc2nc1CC)C(=O)N[C@@H](CCCCN)C(=O)NCCCN)C(=O)N[C@@H](CCCCN)C(=O)NCCCN — residence time (CUG–CAG duplex RNA; SPR): 0.00927 days
CCCCCCCC(=O)Nc1ccc(C#N)nc1C — specific activity (FAAH (Homo sapiens, UniProt O00519); enzyme activity, substrate; 50 µM, pH 8, 37 °C): 12 pmol/min/µg
NC(=O)C1CCNC(=O)C(CCCNC(=O)c2cnccn2)NC(=O)C(Cc2ccco2)NC(=O)C(CC2CC2)NC(=O)C=CC(=O)N1 (stereo not drawn) — enrichment factor (MAP2K6 (Homo sapiens, UniProt P52564); DNA-templated library selection; one selection round): 2.7
Nc1nc2c(ncn2[C@@H]2O[C@@H]3COP(=O)(O)O[C@H]3[C@H]2O)c(=O)[nH]1 — specific activity (PDE6C (Homo sapiens, UniProt P51160); hydrolysis, substrate, Lumit): 11 nmol/min/mg

A few entries again:
CC(=O)OC1(C(C)=O)CCC2C3C=C(C)C4=CC(=O)C(O)CC4(C)C3CCC21C (stereo not drawn) — mRNA level (PGR; refers to: E2F1; T47D; 100 nM, 8 h; relative to: ethanol vehicle): 3.6 ± 0.2 fold change
CCCCCCCCCCCCNP(=O)(Oc1ccccc1)O[C@@H]1O[C@H](CO)[C@@H](O)[C@H](O)[C@H]1F (mixture of isomers) — kinact/Ki (GBA1 (Homo sapiens, UniProt P04062); enzyme activity, irreversible inhibitor; pH 5.5, 37 °C, with: 2,4-dinitrophenyl beta-D-glucopyranoside): 3170 M⁻¹ s⁻¹
CCCCCCCCCCCCSc1nc2c([nH]1)c(=S)n(C)c(=O)n2C — remaining activity (PGR; reporter gene, antagonist, MMTV-luciferase; T47D/A1-2; 10 µM, 24 h, with: 5 nM progesterone; relative to: maximal activity): 76%
CCc1nc2cc3ccccc3cc2cc1C(=O)N1CCC[C@H]1C(=O)N[C@@H](C/C=C\C[C@H](NC(=O)[C@@H]1CCCN1C(=O)c1cc2cc3ccccc3cc2nc1CC)C(=O)N[C@@H](CCCCN)C(=O)NCCCN)C(=O)N[C@@H](CCCCN)C(=O)NCCCN — residence time (CUG–CAG duplex RNA; SPR): 0.00927 days
